Measured values from different studies.
Protocols differ between the studies behind these lines. Several values in a cell are separate wells, animals, samples, runs or records.
HCK: Tyrosine-protein kinase HCK (HCK, Homo sapiens, UniProt P08631)

`CC(C)=CC1OC(C)(C)C2C=C3C(=O)C(Cl)=CC(O)C3C3C(O)C4OC4C(=O)C132` (stereo not shown) gave a remaining binding of 78% (HCK; cell-free assay, competition with immobilised ligand; 10 µM).
With `NC(=O)C[C@H]1CCc2sc3ncnc(O[C@H]4CC[C@H](N5CCOCC5)CC4)c3c21` the inhibition was 7% (HCK; enzyme activity, inhibitor; 10 µM).
For `Cc1ccc(-c2c(/C=C(\C#N)C(=O)NC(C)C)n(CCCO)c3ncnc(N)c23)cc1`, the remaining binding was 57% (HCK; cell-free assay, competition with immobilised ligand; 1 µM).
`CN1CCN(Cc2ccc(-c3ccc(CO[C@H]4CCC[C@@H]4NC(=O)c4cc(-c5cnn(C)c5)cnc4N)cc3)cc2)CC1` has an inhibition of 7% (HCK; enzyme activity, inhibitor; 0.1 µM).
`COc1cc(Nc2nccc(-c3cnn4nc(OC)ccc34)n2)cc(C(F)(F)F)c1` gave a remaining binding of 91% (HCK; binding, competition with immobilised ligand; 1 µM).
`O=C=[N][Ru-4]123([n]4c5ccc(O)cc5c5c6c(c7cc(F)c[n+]1c7c54)C(=O)NC6=O)[S+]1CC[S+]2CC[S+]3CC1` (stereo not shown) has a remaining activity of 50% (HCK; enzyme activity; 100 nM, human enzyme, together with: 10 µM ATP; relative to: untreated).
For `CCN1CCN(Cc2ccc(C(=O)Nc3ccc(C)c(NCc4cnc5[nH]ccc5c4OC)c3)cc2C(F)(F)F)CC1`, the remaining binding was 0.45% (HCK; binding, competition with immobilised ligand; 1 µM).
`CNC(=O)C[C@H](Cc1ccc(C#N)cc1)NC(=O)c1cc(-c2ccc(CN[C@H](C)c3ccc(C)cc3)o2)ccc1Cl`: “activity vs control” 100% (HCK; enzyme activity, inhibitor; 1 µM).
The remaining binding of `Cc1cnc2nc1Nc1cccc(c1)COC/C=C/COCc1cc(ccc1OCCN1CCOCC1)N2` is reported as 73% (HCK; binding; 0.1 µM).
`C=CC(=O)Nc1cccc(-c2cnc3[nH]cc(C(=O)NC(C)(C)C)c3n2)c1` gave an inhibition of 13% and 7% (HCK; kinase activity; 0.1 µM).
`Nc1ncc(-c2cc(-c3cnn(CC(F)(F)F)c3)ncc2F)nc1C(=O)NC1CNCC(F)C1` (stereo not shown) gave a remaining activity of 76% (HCK; enzyme activity; 1 µM; relative to: DMSO control).
`COc1ccc(NC(=O)Nc2ccc3c(c2)C(=O)N(C(C)CO)CC(C)C(CN(C)Cc2ccc4c(c2)OCO4)O3)cc1` (stereo not shown) has a remaining activity of 100% (HCK; 0.03 µM; relative to: control).
The inhibition of `Cc1cccc(O[C@H]2CCC[C@@H](C(C)CNCc3ccncc3)C2)c1` (relative stereo) is reported as 6% (HCK; cell-free assay; 1 µM).
For `Nc1ncc2c(n1)-c1c([nH]c3ccc(C4=CCOCC4)cc13)CCC2`, the remaining binding was 100% (HCK; binding, competition with immobilised ligand; 1 µM).
`CNC(=O)C1CCN(c2cc(C)c(F)cc2NC(=O)c2ccc(-c3cc(O)ccc3C)c(C)c2)CC1` gave a remaining binding of 16% (HCK; binding, competition with immobilised ligand; 1 µM).
`CC(C)n1nc(-c2ccc3cc(OCc4ccccc4)ccc3c2)c2c(N)ncnc21` has a kinase retained of 0% (HCK (Homo sapiens, UniProt P08631, Y522F); SH3 domain accessibility, polyproline peptide pull-down; 5 µM).

A few entries again:
`Nc1ncc(-c2cc(-c3cnn(CC(F)(F)F)c3)ncc2F)nc1C(=O)NC1CNCC(F)C1` (stereo not shown) gave a remaining activity of 76% (HCK; enzyme activity; 1 µM; relative to: DMSO control).
For `Nc1ncc2c(n1)-c1c([nH]c3ccc(C4=CCOCC4)cc13)CCC2`, the remaining binding was 100% (HCK; binding, competition with immobilised ligand; 1 µM).
For `Cc1ccc(-c2c(/C=C(\C#N)C(=O)NC(C)C)n(CCCO)c3ncnc(N)c23)cc1`, the remaining binding was 57% (HCK; cell-free assay, competition with immobilised ligand; 1 µM).
